# Experimental data collected from several papers.
# Lines come from different studies, so protocols differ. ± gives the spread as reported.
# Organism: Salmonella typhimurium
Structure (SMILES),test,test system,setting,scale,measurement,value
Fc1ccc(C2=CCNCC2)cc1,SOS/umu test,TA1535/pSK1002,"0.5 mg/mL, 4 h, with S9, full range",,survival,80.3%
CN(N=O)c1ccc(F)cc1,"mutagenicity, Ames plate incorporation",TA98,"150 µg/plate, 3 d, without S9, methanol",,revertant colonies per plate,20 ± 3
CC(=O)N1CCC(C(=O)N2CCN3C(=O)c4cc(-c5ccccc5)ccc4NC(=O)C3C2)CC1 (stereo not drawn),,TA98,5000 µg/plate,baseline: vehicle,fold increase in revertants,1
COc1cccc(-c2n[nH]c(SCc3ccccn3)n2)c1OC,"Ames test, plate incorporation",TA1537,"0.016 mg/plate, without S9",,revertant colonies per plate,8
OC(CCN1CC=C(c2ccc(F)cc2)CC1)c1ccc(F)c2ccccc12 (stereo not drawn),"SOS response, SOS/umu test",TA1535/pSK1002,"0.001 mg/mL, 4 h, without S9 activation",,umu induction factor,0.9
COCCN(CCOC)N=O,"mutagenicity, Ames plate incorporation",TA98,"50 µg/plate, 3 d, without S9, methanol",,revertant colonies per plate,28 ± 6
O=[N+]([O-])c1ccc(NC2CCNCC2)c(C(F)(F)F)c1,SOS/umu test,TA1535/pSK1002,"0.008 mg/mL, 4 h, with S9, full range",,survival,102%
CN(CC(C)(C)C)N=O,"mutagenicity, Ames plate incorporation",TA1537,"1500 µg/plate, without S9, methanol",,revertant colonies per plate,11.3 ± 2
O=[N+]([O-])c1ccc(N2CCN(CCC(O)c3ccc(F)cc3)CC2)c(C(F)(F)F)c1 (stereo not drawn),SOS/umu test,TA1535/pSK1002,"0.031 mg/mL, 4 h, with S9, lower range",,survival,97.8%
Cc1cc(C(=O)NC(C)(C)COc2cccc3c2C(N)=NS(=O)(=O)N3)cc(C)n1,"Ames test, confirmatory",TA100,"1000 µg/plate, with: rat liver S9",baseline: solvent control,revertant ratio,1
CC(C)N(N=O)C(C)C,"mutagenicity, Ames plate incorporation",TA1535,"2500 µg/plate, without S9, methanol",,revertant colonies per plate,21 ± 3
N#C[C@@]1(n2ccc(N)nc2=O)O[C@H](CO)[C@@H](O)[C@H]1O,,TA1535,"10 µM, without S9",,viability,106%

# Some of these lines once more:
Structure (SMILES),test,test system,setting,scale,measurement,value
CC(C)N(N=O)C(C)C,"mutagenicity, Ames plate incorporation",TA1535,"2500 µg/plate, without S9, methanol",,revertant colonies per plate,21 ± 3
